Assay results from different studies.
Protocols differ between the studies behind these lines. “And” joins repeats or separate records; there may be more than shown.
RAF1: RAF proto-oncogene serine/threonine-protein kinase (RAF1, Homo sapiens, UniProt P04049)
RAF1 Y340D/Y341D: RAF proto-oncogene serine/threonine-protein kinase (RAF1, Homo sapiens, UniProt P04049, Y340D/Y341D)
TDP1: Tyrosyl-DNA phosphodiesterase 1 (TDP1, Homo sapiens, UniProt Q9NUW8)
Chain of UniProt Q9NUW8 (whole entry, looked up): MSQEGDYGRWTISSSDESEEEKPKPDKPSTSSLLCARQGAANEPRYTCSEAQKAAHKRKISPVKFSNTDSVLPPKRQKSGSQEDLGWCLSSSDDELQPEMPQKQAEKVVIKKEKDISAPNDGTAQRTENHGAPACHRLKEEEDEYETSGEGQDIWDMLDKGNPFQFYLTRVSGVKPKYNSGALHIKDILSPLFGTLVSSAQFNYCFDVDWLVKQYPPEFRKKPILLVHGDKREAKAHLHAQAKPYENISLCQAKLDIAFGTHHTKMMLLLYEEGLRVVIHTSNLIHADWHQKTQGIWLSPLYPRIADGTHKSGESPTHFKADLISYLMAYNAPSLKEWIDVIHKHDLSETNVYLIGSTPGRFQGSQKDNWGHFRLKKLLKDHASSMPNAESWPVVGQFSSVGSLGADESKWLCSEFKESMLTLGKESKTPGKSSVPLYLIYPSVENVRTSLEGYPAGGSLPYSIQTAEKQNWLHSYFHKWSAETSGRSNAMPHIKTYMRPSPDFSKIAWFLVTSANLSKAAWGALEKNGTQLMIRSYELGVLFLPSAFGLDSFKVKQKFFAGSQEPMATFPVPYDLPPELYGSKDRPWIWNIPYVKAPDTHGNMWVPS

Compound | target | assay | test system | setting | how to read | quantity | value
C=CC(=O)Nc1cccc(-c2cnc3[nH]cc(C(=O)NC(C)(C)C)c3n2)c1 | RAF1 | enzyme activity, inhibitor |  | 0.1 µM |  | inhibition | -1%
Cc1ccc(-c2c(/C=C(\C#N)C(=O)NC(C)C)n(CCCO)c3ncnc(N)c23)cc1 | RAF1 | cell-free assay, competition with immobilised ligand |  | 1 µM |  | remaining binding | 100%
CNS(=O)(=O)Nc1nccc(Cc2c(C)c3ccc(Oc4ncccc4F)cc3oc2=O)c1F | RAF1 | binding, competition with immobilised ligand |  | 10 µM |  | remaining binding | 24%
COc1ccc(NC(=O)Nc2ccc3c(c2)C(=O)N(C(C)CO)CC(C)C(CN(C)Cc2ccc4c(c2)OCO4)O3)cc1 (stereo not shown) | RAF1 | kinase activity, KinaseProfiler |  | 0.03 µM, species human | reference: control | remaining activity | 100%
COCC12C(=O)NC3C4(C(OC)CC1O)C1CC5(O)C(OC)C(O)C(OC(C)=O)(C1C5OC(=O)c1ccccc1)C3(O)C(OC)C24 (stereo not shown) | RAF1 Y340D/Y341D | kinase activity, inhibitor, ProQinase kinase profiling |  | 25 µM | reference: control | remaining activity | 106% and 105%
CN1CCN(Cc2ccc(-c3ccc(CO[C@H]4CCC[C@@H]4NC(=O)c4cc(-c5cnn(C)c5)cnc4N)cc3)cc2)CC1 | RAF1 Y340D/Y341D | enzyme activity, inhibitor |  | 0.1 µM |  | inhibition | 10%
O=C(O)c1ccc(Nc2c(-c3ccccc3)nc3ccc(CON=Cc4ccc(-n5ccnc5)cc4)cn23)cc1 (mixture of isomers) | TDP1 | enzyme activity, inhibitor |  | 100 µM, unpurified compound |  | inhibition | 12.9%
CN1CC[C@@H](COc2cnc(C#N)cc2-c2ccn3nc(NC(=O)C4CC4)cc3c2)C1 | RAF1 | enzyme activity, inhibitor |  | 1 µM |  | inhibition | 17%
O=c1c(-c2ccc(Cl)c(CN3CCOCC3)c2)coc2cc(O)ccc12 | RAF1 | enzyme activity, inhibitor |  | 1 µM |  | remaining activity | 86%
CNC(=O)C[C@H](Cc1ccc(C#N)cc1)NC(=O)c1cc(-c2ccc(CN[C@H](C)c3ccc(C)cc3)o2)ccc1Cl | RAF1 | enzyme activity, inhibitor |  | 1 µM |  | activity vs control | 106%
O=C=[N][Ru-4]123([n]4c5ccc(O)cc5c5c6c(c7cc(F)c[n+]1c7c54)C(=O)NC6=O)[S+]1CC[S+]2CC[S+]3CC1 (stereo not shown) | RAF1 | enzyme activity |  | 100 nM, human enzyme, together with: 10 µM ATP | reference: untreated | remaining activity | 111%
CC(=O)N1c2ccc(-c3ccc(CNC(=O)c4cn5cc(-c6cnc(N)nc6)nc(N6CCOCC6)c5n4)cc3)cc2CC[C@@H]1C | RAF1 | KINOMEscan |  | 10 µM |  | remaining binding | 90%
Cc1cccc(O[C@H]2CCC[C@@H](C(C)CNCc3ccncc3)C2)c1 (relative stereo) | RAF1 | enzyme activity, inhibitor |  | 1 µM |  | inhibition | -6%
CC(C)=CC1OC(C)(C)C2C=C3C(=O)C(Cl)=CC(O)C3C3C(O)C4OC4C(=O)C132 (stereo not shown) | RAF1 | cell-free assay, competition with immobilised ligand |  | 10 µM |  | remaining binding | 85%
COc1cc(Nc2nccc(-c3cnn4nc(OC)ccc34)n2)cc(C(F)(F)F)c1 | RAF1 | binding, competition with immobilised ligand |  | 1 µM |  | remaining binding | 84%
COc1ccc(C(=O)/C=C/c2ccccc2-c2c[nH]c3ccc(C#N)cc23)c(O)c1 | RAF1 | enzyme activity, inhibitor |  | 20 µM |  | inhibition | -10%
CNC(=O)C1CCN(c2cc(C)c(F)cc2NC(=O)c2ccc(-c3cc(O)ccc3C)c(C)c2)CC1 | RAF1 | binding, competition with immobilised ligand |  | 1 µM |  | remaining binding | 76%
NC(=O)C[C@H]1CCc2sc3ncnc(O[C@H]4CC[C@H](N5CCOCC5)CC4)c3c21 | RAF1 | enzyme activity, inhibitor |  | 10 µM |  | inhibition | 0%
O=C(O)c1ccc(Nc2c(-c3ccccc3)nc3ccc(CON=Cc4cnn(Cc5ccccc5Cl)c4)cn23)cc1 | TDP1 | enzyme activity, inhibitor |  | 100 µM, unpurified compound |  | inhibition | 14.6%
CS(=O)(=O)Nc1cccc(-c2csc3cnc(Nc4ccc(N5CCN(CCCCCOc6cccc7c6C(=O)N(C6CCC(=O)NC6=O)C7=O)CC5)cc4)nc23)c1 (stereo not shown) | RAF1 | probe labelling, inhibitor, KiNativ chemoproteomics | MOLT-4 | 1 µM |  | inhibition | -1.72%
CCN1CCN(Cc2ccc(C(=O)Nc3ccc(C)c(NCc4cnc5[nH]ccc5c4OC)c3)cc2C(F)(F)F)CC1 | RAF1 | binding, competition with immobilised ligand |  | 1 µM |  | remaining binding | 25%
CN1CCN(Cc2ccc(NC(=O)c3cccc(C#Cc4cnc(N)c5ncccc45)c3)cc2C(F)(F)F)CC1 | RAF1 | cell-free assay, competition with immobilised ligand |  | 50 nM |  | remaining binding | 18%

Excerpt of the above:
Compound | target | assay | test system | setting | how to read | quantity | value
NC(=O)C[C@H]1CCc2sc3ncnc(O[C@H]4CC[C@H](N5CCOCC5)CC4)c3c21 | RAF1 | enzyme activity, inhibitor |  | 10 µM |  | inhibition | 0%
O=C(O)c1ccc(Nc2c(-c3ccccc3)nc3ccc(CON=Cc4cnn(Cc5ccccc5Cl)c4)cn23)cc1 | TDP1 | enzyme activity, inhibitor |  | 100 µM, unpurified compound |  | inhibition | 14.6%
